{"data": "Experimental data pooled from the literature", "note": "Lines come from different studies, so protocols differ. ± marks the error that the study gave.", "UniProt Q8WU58, sequence (whole entry, looked up)": "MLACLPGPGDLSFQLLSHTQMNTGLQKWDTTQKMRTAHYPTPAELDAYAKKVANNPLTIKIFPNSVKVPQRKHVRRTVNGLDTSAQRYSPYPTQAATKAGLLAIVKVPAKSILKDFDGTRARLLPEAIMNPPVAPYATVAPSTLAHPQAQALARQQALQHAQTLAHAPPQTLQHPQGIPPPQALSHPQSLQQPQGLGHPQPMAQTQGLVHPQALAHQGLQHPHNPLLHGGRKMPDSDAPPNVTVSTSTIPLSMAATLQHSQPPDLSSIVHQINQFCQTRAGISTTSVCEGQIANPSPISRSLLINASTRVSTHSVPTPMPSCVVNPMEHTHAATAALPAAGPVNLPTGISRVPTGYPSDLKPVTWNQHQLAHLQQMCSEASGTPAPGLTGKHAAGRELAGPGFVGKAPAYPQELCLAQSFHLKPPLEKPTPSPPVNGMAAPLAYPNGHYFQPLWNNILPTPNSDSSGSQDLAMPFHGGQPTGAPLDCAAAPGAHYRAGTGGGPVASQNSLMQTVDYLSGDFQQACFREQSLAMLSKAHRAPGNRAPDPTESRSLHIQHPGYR"}
{"Compound": "CC[C@H](C)[C@@H]1NC(=O)[C@@H]2CCCN2C(=O)[C@H](CC(C)C)NC(=O)[C@H](CC(C)C)NC(=O)CNC(=O)[C@@H](NC(=O)[C@@H](NC(=O)[C@H](CC(=O)O)NC(=O)CNC(=O)[C@@H](NC(=O)[C@H](C)NC(=O)CNC(=O)[C@H](CCCCN)NC(=O)[C@H](CC(C)C)NC(=O)[C@H](CC(C)C)NC(=O)[C@H](CCCCN)NC(=O)CNC(=O)[C@@H](NC(=O)[C@@H](N)CC(C)C)C(C)C)C(C)C)C(C)C)CSSC[C@@H](C(=O)O)NC1=O", "assay": "RNA-seq, refers to: Ighg2b mRNA", "system": "mouse traumatic brain injury, frontal cortex and hippocampus", "setting": "dose not given", "scale": "baseline: TBI plus compound vs TBI", "quantity": "log2 fold change", "value": -3.07}
{"Compound": "N#Cc1c(C(F)(F)F)cc(-c2ccccc2)nc1SCC(=O)Nc1cccnc1", "tested on": "MDA-MB-231", "assay": "MTT", "setting": "100 µM, 72 h", "quantity": "viability", "value": "42 ± 10%"}
{"Compound": "CN(C(=O)n1cnc(-c2ccc[n+]([O-])c2)c1)C1CCCCC1", "tested on": "COS cells expressing human FAAH", "system": "cell lysate", "setting": "100 nM, 0 h, quantification limit 5 nM", "quantity": "compound concentration", "value": "not detected"}
{"Compound": "O=C(/C=C/c1ccc(O)c(O)c1/C=C/c1ccc(O)c(O)c1)O[C@H](Cc1ccc(O)c(O)c1)C(=O)O", "tested on": "Vero E6", "setting": "200 µM", "quantity": "cytotoxicity", "value": "25%"}
{"Compound": "COc1cc(Nc2ncc(F)c(Nc3ccc4c(n3)NC(=O)C(C)(C)O4)n2)cc(OC)c1OC", "tested on": "phosphodiesterase 4", "assay": "enzyme activity, inhibitor", "quantity": "IC50", "value": "> 10 µM"}
{"Compound": "CC(c1ccccc1)(c1ccc(O)cc1)c1ccc(O)cc1", "tested on": "HepG2 spheroids, dissociated", "assay": "annexin V-FITC/PI flow cytometry", "setting": "1 µM, 96 h", "quantity": "early apoptotic cells", "value": "6.43 ± 2.25%"}
{"Compound": "COc1cc2c(Oc3ccc4[nH]c(C)cc4c3F)ccnc2cc1OCC1(N)CC1", "system": "paediatric refractory sarcoma patients", "setting": "12 mg", "quantity": "intestinal obstruction incidence", "value": "9.1%"}
{"Compound": "CO[C@H]1C[C@@H]2CC[C@@H](C)[C@@](O)(O2)C(=O)C(=O)N2CCCC[C@H]2C(=O)O[C@H]([C@H](C)C[C@@H]2CC[C@@H](OC(=O)NCCOCCOCCOCCOCCOCCOCCOCCOCCC(=O)N3CCc4cc(Cn5nc(-c6ccc7oc(N)nc7c6)c6c(N)ncnc65)ccc4C3)[C@H](OC)C2)C[C@@H](O)[C@H](C)/C=C(\\C)[C@@H](O)[C@@H](OC)C(=O)[C@H](C)C[C@H](C)/C=C/C=C/C=C/1C", "system": "patients with advanced solid tumours", "setting": "intravenous, dose not given, any grade", "quantity": "incidence of nausea TRAE", "value": "44%"}
{"Compound": "C[C@@H](O)[C@@H](CO)NC(=O)[C@@H](CCCNC(=N)N)NC(=O)[C@@H]1CCCN1C(=O)[C@@H]1CSSC[C@H](NC(=O)[C@H](Cc2ccccc2)NC(=O)CN2CCN(CC(=O)O)CCN(CC(=O)O)CCN(CC(=O)O)CC2)C(=O)N[C@@H](Cc2ccc(O)cc2)C(=O)N[C@@H](Cc2ccccc2)C(=O)N[C@@H](CCC(N)=O)C(=O)N[C@@H](CC(N)=O)C(=O)N1 [gallium-68 labelled]", "system": "healthy Wistar rat, large intestine", "setting": "intravenous, 8 MBq, 30 min, individual animals", "quantity": "tissue uptake", "value": "0.23 %ID/g"}
{"Compound": "C[C@H]1CN(c2n[nH]c3nc(N[C@H]4CC[C@H](NS(=O)(=O)CCC(F)(F)F)CC4)ncc23)CCO1", "tested on": "Protein FAM222B (Homo sapiens, UniProt Q8WU58)", "assay": "competitor, Kinobeads competition", "system": "HEK293, K562, placenta extract", "setting": "4 µM", "scale": "baseline: vehicle", "quantity": "remaining binding", "value": "24%"}
{"Compound": "O=C(Nc1cnccc1Cl)N1CCN(Cc2ccc3c(c2)OC(F)(F)O3)CC1", "tested on": "COS cells expressing human FAAH", "system": "COS cell culture supernatant", "setting": "100 nM, 1 h", "quantity": "concentration", "value": "90.1 ± 2.7 nM"}
{"Compound": "COCCOCCOCCNC(=O)CSc1nc(-c2ccccc2)cc(C(F)(F)F)c1C#N", "tested on": "MDA-MB-231", "assay": "MTT", "setting": "100 µM, 72 h", "quantity": "viability", "value": "58 ± 6%"}
{"Compound": "O=C(Nc1cccnn1)N1CCC(=Cc2cccc(Oc3ccc(C(F)(F)F)cn3)c2)CC1", "tested on": "COS cells expressing human FAAH", "system": "cell lysate", "setting": "100 nM, 24 h", "quantity": "intracellular concentration", "value": "34 ± 2.3 nM"}
{"Compound": "Oc1ccc(C2(c3ccc(O)cc3)c3ccccc3-c3ccccc32)cc1", "tested on": "HepG2 spheroids, dissociated", "assay": "annexin V-FITC/PI flow cytometry", "setting": "40 µM, 24 h", "quantity": "viable cells", "value": "58%"}
{"Compound": "O=C(Nc1cccnn1)N1CCC(=Cc2cccc(Oc3ccc(C(F)(F)F)cn3)c2)CC1", "tested on": "COS cells expressing human FAAH", "setting": "100 nM, 3 h", "quantity": "supernatant concentration", "value": "64.4 ± 1.7 nM"}
{"Compound": "O=c1ccc2ccccc2o1", "tested on": "HepaRG 3D spheroids", "assay": "cellular ATP", "setting": "72 h, high-content imaging", "quantity": "point of departure", "value": "194 µM"}
{"Compound": "COc1ccc(NC(=O)CSc2nc(-c3ccccc3)cc(C)c2C#N)cc1", "tested on": "MDA-MB-231", "assay": "MTT", "setting": "100 µM, 72 h", "quantity": "viability", "value": "40 ± 7%"}
{"Compound": "CNC(=O)c1c(N(C)N=O)ncn1C", "tested on": "Salmonella typhimurium", "assay": "plate incorporation", "system": "TA1537, water", "setting": "5000 µg/plate, without S9", "quantity": "revertant colonies per plate", "value": "8 ± 2"}
{"Compound": "O=S(=O)(c1ccc(O)cc1)c1ccc(O)cc1", "tested on": "HepG2 spheroids", "assay": "annexin V-FITC/PI flow cytometry", "setting": "0.10 µM, 96 h", "quantity": "late apoptotic cells", "value": "39.1 ± 10.3%"}
{"Compound": "COCCOCCOCCNC(=O)c1sc2nc(C)cc(C(F)(F)F)c2c1N", "tested on": "MDA-MB-231", "assay": "MTT", "setting": "100 µM, 72 h", "quantity": "viability", "value": "67 ± 9%"}
{"Compound": "CC[C@H](C)[C@H]1C(=O)N[C@@H](CC(C)C)C(=O)N2CCC[C@H]2C(=O)N2CCC[C@@H]2C(=O)NCC(=O)N[C@@H](CC(C)C)C(=O)N[C@@H](CC(C)C)C(=O)N[C@@H](C)C(=O)N[C@@H](CO)C(=O)N[C@H]([C@H](C)O)C(=O)N[C@H](Cc2ccc(O)cc2)C(=O)N1C", "tested on": "MDCK-MDR1", "system": "HBSS, 0.25% BSA", "setting": "2 h", "quantity": "Papp A to B", "value": "0.21 ×10⁻⁶ cm/s"}
{"Compound": "CC(C)CC(=O)OC[C@H]1O[C@@](C#N)(c2ccc3c(N)ncnn23)[C@H](O)[C@@H]1O", "tested on": "Caco-2", "setting": "0.9 µM, 2 h, together with: verapamil 100 µM", "quantity": "efflux ratio", "value": 2.22}
{"Compound": "CCOC(=O)c1ccc(NC(=O)c2sc3nc(-c4ccccc4)cc(C(F)(F)F)c3c2N)cc1", "tested on": "MDA-MB-231", "assay": "MTT", "setting": "100 µM, 72 h", "quantity": "viability", "value": "15 ± 3%"}
{"Compound": "CC[C@H](C)[C@H](NC(=O)[C@H](Cc1ccccc1)NC(=O)[C@H](CCC(=O)O)NC(=O)[C@H](CCCNC(=N)N)NC(=O)[C@H](C)NC(=O)[C@H](C)NC(=O)[C@H](CCC(N)=O)NC(=O)[C@H](CCC(=O)O)NC(=O)[C@H](CCC(=O)O)NC(=O)[C@H](CC(C)C)NC(=O)[C@H](Cc1ccc(O)cc1)NC(=O)[C@H](CO)NC(=O)[C@H](CO)NC(=O)[C@@H](NC(=O)[C@H](CC(=O)O)NC(=O)[C@H](CO)NC(=O)[C@@H](NC(=O)[C@H](Cc1ccccc1)NC(=O)[C@@H](NC(=O)CNC(=O)[C@H](CCC(=O)O)NC(=O)[C@H](C)NC(=O)CCc1c[nH]cn1)[C@@H](C)O)[C@@H](C)O)C(C)C)C(=O)N[C@@H](C)C(=O)N[C@@H](Cc1c[nH]c2ccccc12)C(=O)N[C@@H](CC(C)C)C(=O)N[C@H](C(=O)N[C@@H](CCCNC(=N)N)C(=O)NCC(=O)N[C@@H](CCCNC(=N)N)C(=O)N[C@@H](CCCCNC(=O)COCCOCCNC(=O)COCCOCCNC(=O)CC[C@H](NC(=O)CCCCCCCCCCCCCCCCC(=O)O)C(=O)O)C(=O)NCC(=O)NCC(=O)N[C@@H](CO)C(=O)N[C@@H](CCCCNc1c(NCCCCCN(O)C(=O)CCC(=O)NCCCCCN(O)C(=O)CCC(=O)NCCCCCN(O)C(C)=O)c(=O)c1=O)C(=O)O)C(C)C [zirconium-89 labelled]", "assay": "ex vivo gamma counting", "system": "rat, brain", "setting": "subcutaneous, 3 nmol/kg, 24 h, together with: [89Zr]-labelled peptide", "quantity": "tissue uptake", "value": "0.02 %ID/g"}
{"note": "A few entries again:"}
{"Compound": "COCCOCCOCCNC(=O)CSc1nc(-c2ccccc2)cc(C(F)(F)F)c1C#N", "tested on": "MDA-MB-231", "assay": "MTT", "setting": "100 µM, 72 h", "quantity": "viability", "value": "58 ± 6%"}
{"Compound": "O=c1ccc2ccccc2o1", "tested on": "HepaRG 3D spheroids", "assay": "cellular ATP", "setting": "72 h, high-content imaging", "quantity": "point of departure", "value": "194 µM"}
